Measurements pooled from the literature.
Each line is one published result; not all experiments were run side by side.
Organism: Escherichia coli

With `CC[C@H](C)[C@H](N)C1=N[C@H](C(=O)N[C@@H](CC(C)C)C(=O)N[C@H](CCC(=O)O)C(=O)N[C@H](C(=O)N[C@H]2CCCCNC(=O)[C@H](CC(N)=O)NC(=O)[C@@H](CC(=O)O)NC(=O)[C@H](Cc3c[nH]cn3)NC(=O)[C@@H](Cc3ccccc3)NC(=O)[C@H]([C@@H](C)CC)NC(=O)[C@@H](CCCN)NC2=O)[C@@H](C)CC)CS1` the MIC was over 64 µg/mL (ATCC 25922; 18 h, 37 °C, 0.3 mM ZnSO4 LB).
`CC1(C)[C@H](NC(=O)/C(=N\OCc2cc(=O)c(O)cn2O)c2csc(N)n2)C(=O)N1OS(=O)(=O)O` gave an MIC of 0.06 µg/mL (microbial growth, agar dilution; ATCC25).
With `CC[C@H]1OC(=O)[C@H](C)[C@@H](OC(=O)Cc2ccc(C(F)(F)F)cc2)[C@H](C)[C@@H](O[C@@H]2O[C@H](C)C[C@H](N(C)C)[C@H]2O)[C@](C)(OC)C[C@@H](C)C(=O)[C@H](C)[C@@H](O)[C@]1(C)O` the MIC was over 32 µg/mL (lpxC).
The MIC of `C#CCOc1ccc(CN[C@@]2(C)C[C@H](O[C@H]3[C@H](Oc4c5cc6cc4Oc4ccc(cc4Cl)[C@@H](O)[C@@H](NC(=O)[C@@H](CC(C)C)NC)C(=O)N[C@@H](CC(N)=O)C(=O)N[C@H]6C(=O)N[C@H]4C(=O)N[C@H](C(=O)N[C@H](C(=O)NCC(N)=O)c6cc(O)cc(O)c6-c6cc4ccc6O)[C@H](O)c4ccc(c(Cl)c4)O5)O[C@H](CO)[C@@H](O)[C@@H]3O)O[C@@H](C)[C@H]2O)cc1OC` is reported as 64 µg/mL (broth microdilution; ATCC 25922; 18 to 20 h).
For `COc1ccc2ccc(O)c(/C=N/[C@H]3CCCC[C@H]3/N=C/c3cc(C(C)(C)C)ccc3O)c2c1`, the MIC was over 40 µM (microbial growth, broth dilution; clinical isolate).
`CC[C@H]1OC(=O)[C@H](C)[C@@H](OC(=O)Cc2cccc([N+](=O)[O-])c2)[C@H](C)[C@@H](O[C@@H]2O[C@H](C)C[C@H](N(C)C)[C@H]2O)[C@](C)(OC)C[C@@H](C)C(=O)[C@H](C)[C@@H](O)[C@]1(C)O` gave an MIC of 16 µg/mL (lpxC).
`COc1ccc2ccc(O)c(/C=N/[C@H]3CCCC[C@H]3/N=C/c3c(C)cccc3O)c2c1` has an MIC of over 40 µM (microbial growth, broth dilution).
For `COc1cc(C(=O)Nc2ccc(C(=O)O)cc2)ccc1NC(=O)c1ccc(NC(=O)[C@H](Cc2c[nH]nn2)NC(=O)c2ccc(NC(=O)/C(C)=C/c3ccc(O)cc3)cc2)cc1`, the MIC was 32 µg/mL (broth microdilution; ciprofloxacin-sensitive).
`CCCCCCCCCCCCCCCCCCn1cc(CN(CCC(=O)NCCN(CCC(=O)NCCN(CCC(=O)NCCN(C)C)CCC(=O)NCCN(C)C)CCC(=O)NCCN(CCC(=O)NCCN(C)C)CCC(=O)NCCN(C)C)CCC(=O)NCCN(CCC(=O)NCCN(CCC(=O)NCCN(C)C)CCC(=O)NCCN(C)C)CCC(=O)NCCN(CCC(=O)NCCN(C)C)CCC(=O)NCCN(C)C)nn1` gave an MIC of 6 µg/mL (broth microdilution; ATCC 25922, LB broth; with: 500 mM glutathione).
With `Nc1nc2[nH]nc(CC(=O)O)c(=O)c2c(=O)[nH]1` the MIC was over 100 µg/mL (microbial growth, broth dilution; BW25113; 18 h).
The MIC of `CC[C@H]1OC(=O)[C@H](C)[C@@H](OC(=O)Cc2c(F)cc([N+](=O)[O-])cc2F)[C@H](C)[C@@H](O[C@@H]2O[C@H](C)C[C@H](N(C)C)[C@H]2O)[C@](C)(OC)C[C@@H](C)C(=O)[C@H](C)[C@@H](O)[C@]1(C)O` is reported as 2 µg/mL (tolC).
`COc1ccc(/C=N/[C@@H]2CCCC[C@@H]2/N=C/c2c(O)ccc3ccc(OC)cc23)c(O)c1` has an MIC of over 40 µM (microbial growth, broth dilution).
The MIC of `CC[C@H]1OC(=O)[C@H](C)[C@@H](OC(=O)Cc2c(F)cccc2F)[C@H](C)[C@@H](O[C@@H]2O[C@H](C)C[C@H](N(C)C)[C@H]2O)[C@](C)(OC)C[C@@H](C)C(=O)[C@H](C)[C@@H](O)[C@]1(C)O` is reported as 64 µM (DSM 30083; with: colistin sulfate at 0.1 x MIC).
`C#CCNC(=O)C1(O/N=C(\C(=O)N[C@@H]2C(=O)N(OS(=O)(=O)O)C2(C)C)c2csc(N)n2)CC1` has an MIC of 2 µg/mL (agar dilution; 16-1 ESBL).
`CC[C@H](C)[C@H](NC(=O)[C@@H](CCCNC(=N)N)NC(=O)[C@H](CCCNC(=N)N)NC(=O)[C@@H]1CCCN1C(=O)[C@@H]1CCCN1C(=O)[C@H](CCCNC(=N)N)NC(=O)[C@@H]1CCCN1C(=O)[C@H](CCCNC(=N)N)NC(=O)[C@@H]1CCCN1C(=O)[C@H](CCCNC(=N)N)NC(=O)[C@H](Cc1ccc(O)cc1)NC(=O)[C@@H]1CCCN1C(=O)[C@@H]1CCCN1C(=O)[C@H](CCCCN)NC(=O)[C@H](CC(=O)O)NC(=O)[C@@H](N)C(C)C)C(=O)N[C@@H](Cc1ccc(O)cc1)C(=O)N[C@@H](CC(N)=O)C(=O)N[C@H](CCCNC(=N)N)C(N)=O` has an MIC of 8 µg/mL (broth microdilution; MC4100; 18 h, 37 °C, 25% MHB2).
With `COc1cc(C(=O)O)ccc1NC(=O)c1ccc(NC(=O)c2ccc(NC(=O)[C@H](Cc3c[nH]nn3)NC(=O)c3ccc(NC(=O)/C(C)=C/c4ccc(O)cc4)cc3)cc2)cc1O` the MIC was 0.25 µg/mL (broth microdilution; ciprofloxacin-sensitive).
`CCCCCCCCCCn1cc[n+](CCCCOc2cc(OCCCC[n+]3ccn(CCCCCCCCCC)c3)cc(OCCCC[n+]3ccn(CCCCCCCCCC)c3)c2)c1.[Br-].[Br-].[Br-]` gave an MIC of 1 µM (MC4100).
`COc1cc(C(=O)Nc2ccc(C(=O)O)c(O)c2OC)ccc1NC(=O)c1ccc(NC(=O)[C@H](Cc2c[nH]nn2)NC(=O)c2ccc(NC(=O)/C(C)=C/c3ccc(O)cc3)cc2)cc1` gave an MIC of 0.25 µg/mL (broth microdilution; ciprofloxacin-sensitive).
For `CCCC(=O)Oc1c(C)c(OC)c2c(c1C)OC(=O)[C@@H](CC)[C@]2(O)/C=C/c1ccccc1` (racemic), the MIC was 5000 µg/mL (microbial growth, broth dilution; ATCC25922).
`CC[C@H](C)[C@H](NC(=O)[C@H](CCC(N)=O)NC(=O)[C@H](Cc1ccccc1)NC(=O)[C@H](CC(N)=O)NC(=O)[C@H](CCCCN)NC(=O)[C@H](CC(C)C)NC(=O)[C@H](CCCNC(=N)N)NC(=O)[C@H](CCCCN)NC(=O)[C@H](CCCCN)NC(=O)[C@@H](NC(=O)[C@H](CO)NC(=O)[C@H](CCCCN)NC(=O)CNC(=O)[C@H](CC(C)C)NC(=O)[C@H](CCCCN)NC(=O)[C@H](CCCCN)NC(=O)[C@H](CC(C)C)NC(=O)[C@H](CCCCN)NC(=O)[C@H](CCCCN)NC(=O)[C@H](CCCNC(=N)N)NC(=O)[C@H](CC(C)C)NC(=O)CNC(=O)[C@@H](N)CCCNC(=N)N)[C@@H](C)CC)C(=O)NCC(=O)N[C@@H](Cc1ccccc1)C(=O)N[C@@H](CO)C(=O)N[C@H](C(=O)N1CCC[C@H]1C(=O)N[C@@H](Cc1ccccc1)C(=O)N[C@@H](C)C(=O)NCC(=O)O)C(C)C` gave an MIC of 2.36 µM (broth microdilution; ATCC 25922).
The MIC of `C=C[C@H]1CC1(NC(=O)C12CC(NC(=O)c3ccc(C#N)cc3)(C1)C2)C(=O)Nc1ccc(C(=O)Nc2ccc(C(=O)Nc3ccc(C(=O)O)cc3)c(O)c2OC(C)C)cc1` (some centres unmarked) is reported as 0.04 µg/mL (BW25113 WT).
The MIC of `CCOc1c(NC(=O)c2ccc(NC(=O)c3ccc(NC(=O)[C@H](Cc4c[nH]nn4)NC(=O)c4ccc(NC(=O)/C(C)=C/c5ccc(O)cc5)cc4)cc3)c(OCC)c2O)ccc(C(=O)O)c1O` is reported as 0.031 µg/mL (broth microdilution; ciprofloxacin-resistant).
`CN[C@H](CC(C)C)C(=O)N[C@H]1C(=O)N[C@@H](CC(N)=O)C(=O)N[C@H]2C(=O)N[C@H]3C(=O)N[C@H](C(=O)N[C@H](C(=O)N[C@@H](CCCNC(=N)N)C(N)=O)c4cc(O)cc(O)c4-c4cc3ccc4O)[C@H](O)c3ccc(c(Cl)c3)Oc3cc2cc(c3O[C@@H]2O[C@H](CO)[C@@H](O)[C@H](O)[C@H]2O[C@H]2C[C@](C)(NCc3ccc(OCc4cn(CC(=O)N[C@H](C(=O)N[C@@H](CCN)C(=O)N[C@H]5CCNC(=O)[C@H]([C@@H](C)O)NC(=O)[C@H](CCN)NC(=O)[C@H](CCN)NC(=O)[C@H](CC(C)C)NC(=O)[C@@H](CC(C)C)NC(=O)[C@H](CCN)NC5=O)[C@@H](C)O)nn4)c(OC)c3)[C@H](O)[C@H](C)O2)Oc2ccc(cc2Cl)[C@H]1O` gave an MIC of 8 µg/mL (broth microdilution; ATCC 35218, cation-adjusted Mueller-Hinton broth; 18 to 20 h, 37 °C, 0.002% polysorbate 80).
With `COc1cc(C(=O)O)ccc1NC(=O)c1ccc(NC(=O)c2ccc(NC(=O)[C@H](Cc3c[nH]nn3)NC(=O)c3ccc(NC(=O)/C(C)=C/c4ccc(O)cc4)cc3)cc2)c(OC)c1O` the MIC was 0.25 µg/mL (broth microdilution; DSM 1116).
The MIC of `CCC(CC)c1cc(CCN2CCCN(C(=O)OC(C)(C)C)CC2)nc(-c2ccccn2)n1` is reported as over 64 µg/mL (microbial growth, broth dilution; ATCC25922).
With `COc1c(C)c(OCc2ccccc2)c(C)c(OCc2ccccc2)c1C(=O)/C=C/c1ccccc1` the MIC was 5000 µg/mL (microbial growth, broth dilution; ATCC25922).
The MIC of `CCOc1c(NC(=O)c2ccc(NC(=O)c3ccc(NC(=O)[C@H](Cc4c[nH]nn4)NC(=O)c4ccc(NC(=O)/C(C)=C/c5ccc(O)cc5)cc4)cc3)c(OC)c2O)ccc(C(=O)O)c1O` is reported as 0.016 µg/mL (broth microdilution; BW25113).
`CN[C@H](CC(C)C)C(=O)N[C@H]1C(=O)N[C@@H](CC(N)=O)C(=O)N[C@H]2C(=O)N[C@H]3C(=O)N[C@H](C(=O)N[C@H](C(=O)NCC(N)=O)c4cc(O)cc(O)c4-c4cc3ccc4O)[C@H](O)c3ccc(c(Cl)c3)Oc3cc2cc(c3O[C@@H]2O[C@H](CO)[C@@H](O)[C@H](O)[C@H]2O[C@H]2C[C@](C)(NCc3ccc(OCc4cn(CC(=O)N[C@H](C(=O)N[C@@H](CCN)C(=O)N[C@H]5CCNC(=O)[C@H]([C@@H](C)O)NC(=O)[C@H](CCN)NC(=O)[C@H](CCN)NC(=O)[C@H](CC(C)C)NC(=O)[C@@H](CC(C)C)NC(=O)[C@H](CCN)NC5=O)[C@@H](C)O)nn4)c(OC)c3)[C@H](O)[C@H](C)O2)Oc2ccc(cc2Cl)[C@H]1O` gave an MIC of 8 µg/mL (broth microdilution; ATCC 35218, cation-adjusted Mueller-Hinton broth; 18 to 20 h, 37 °C, 0.002% polysorbate 80).
`CC[C@H]1OC(=O)[C@H](C)[C@@H](OC(=O)Cc2ccc3c(c2)OCO3)[C@H](C)[C@@H](O[C@@H]2O[C@H](C)C[C@H](N(C)C)[C@H]2O)[C@](C)(OC)C[C@@H](C)C(=O)[C@H](C)[C@@H](O)[C@]1(C)O` has an MIC of 16 µg/mL (lpxC).
With `CCCCCCCCn1cc[n+](CCCCCCCCCCOc2cc(OCCCCCCCCCC[n+]3ccn(CCCCCCCC)c3)cc(OCCCCCCCCCC[n+]3ccn(CCCCCCCC)c3)c2)c1.[Br-].[Br-].[Br-]` the MIC was 16 µM (MC4100).
With `O=C(O)c1ccccc(=O)c1O` the MIC was over 71.4 µM (ATCC 35218).
`C/C(=C\c1ccc(O)cc1)C(=O)Nc1ccc(C(=O)N[C@@H](Cc2c[nH]nn2)C(=O)Nc2ccc(C(=O)Nc3ccc(C(=O)Nc4ccc(C(=O)O)c(O)c4)c(O)c3)cc2)cc1` gave an MIC of 0.5 µg/mL (broth microdilution; ciprofloxacin-resistant).
`Cn1nc(C(=O)O)c(=O)c2c(=O)[nH]c(N)nc21` has an MIC of over 100 µg/mL (microbial growth, broth dilution; BW25113; 18 h).
`C/C(=C\c1ccc(O)cc1)C(=O)Nc1ccc(C(=O)N[C@@H](Cc2c[nH]nn2)C(=O)Nc2ccc(C(=O)Nc3ccc(C(=O)Nc4ccc(C(=O)O)cc4)c(O)c3)cc2)cc1` gave an MIC of 0.125 µg/mL (broth microdilution; ciprofloxacin-sensitive).
`c1ccc(CN2CCOCCOCCN(CCCCCCCCCCN3CCOCCOCCN(CCCCCCCCCCN4CCOCCOCCN(Cc5ccccc5)CCOCCOCC4)CCOCCOCC3)CCOCCOCC2)cc1` gave an MIC of 35 µM (tetracycline-resistant (pBR322)).
